Results collected from several papers.
Numbers after ± are the reported error.

| SMILES | assay | system | setting | scale | endpoint | result |
| --- | --- | --- | --- | --- | --- | --- |
| CNCc1ccc(-c2[nH]c3cc(F)cc4c3c2CCNC4=O)cc1 |  | patients | oral, 600 mg twice daily, grade 2 |  | decreased appetite incidence | 7.7% |
| COc1cccc(-n2nnnc2SCC(=O)Nc2c(C)cc(C)cc2C)c1 |  | octanol/buffer | pH 11, known kinase inactives set |  | logP | 3.86 |
| COc1ccc2c(=O)n(C)c(-c3ccccc3)nc2c1 |  | Sprague-Dawley rat, male, lung | oral, 30 mg/kg, 2 h | relative to: lung over plasma | tissue/plasma ratio | 0.98 |
| COc1ncc(-c2nc3c(n2C(C)C)[C@H](c2ccc(Cl)cc2)N(c2cc(Cl)cn(C)c2=O)C3=O)c(OC)n1 |  | human patients, plasma | oral, 200 mg, high-dose arm, cycle 2 day 1 |  | median half-life | 23.1 h |
| N#Cc1ccc2c(c1)[C@H]1CCCN(C(=O)c3ccc4[nH]cnc4c3)[C@H]1C2 |  | human | 160 mg, day 15 | relative to: baseline | ACTH level change | 0.8 pmol/L |
| NC(=O)c1ccc(NCCCN2CCOCC2)c([N+](=O)[O-])c1 |  | octanol/buffer | pH 11, known kinase inactives set |  | logP | 0.49 |
| O=C(O)CCc1cccc(O)c1O |  | human, cerebrospinal fluid | concentration not given, median |  | CSF concentration | 15.8 nM |
| [O]=[Co].[O]=[Co][O][Co]=[O] |  | Crl:CD(SD) rat female, blood | oral, 734 mg Co/kg/day, 90 days |  | haematocrit | 51.3% |
| CCCCCCCC[C@H](NC(=O)[C@@H]1C[C@H](C)CN1C(=O)/C=C/[C@@H](C)CC)C(=O)N[C@H](C(=O)NC(C)(C)C(=O)N[C@@H](CC(C)C)C(=O)N[C@@H](CC(C)C)C(=O)NC(C)(C)C(=O)NC(C)(C)C(=O)NCCC(=O)N[C@@H](C)CN(C)C)[C@H](O)C(C)C | circular dichroism | phosphate buffer | pH 7.4, 20 °C |  | alpha-helix content | 97.5% |
| CC(C)(C)c1ccc(O)c(CN(Cc2cc(C(C)(C)C)ccc2O)C2CCC(NC(N)=O)CC2)c1 (stereo not drawn) |  | C57BL/6 mouse, male, brain | oral, 10 mg/kg | relative to: oral AUC(0-inf) over intraperitoneal | relative bioavailability | 50% |
| CN(C)C(=O)c1cc2cnc(Nc3ccc(-c4ccc5c(=O)cc(N6CCOCC6)oc5c4)cc3)nc2n1C1CCCC1 |  | BALB/c mouse, lung | oral, 20 mg/kg, 2 h |  | concentration | 598 ± 412 ng/g |
| Cc1cc(NC2CCN(C(=O)OC3CCN(C(=O)/C=C/CN(C)C)C3)CC2)n2ncc(C(C)C)c2n1 (stereo not drawn) | Phase I dose escalation CTCAE v4.0, measured: Constipation | patients with advanced solid tumours | dose not given, TIW dosing any grade |  | patients with adverse event | 36% |
| COc1ccccc1-n1nnnc1SCC(=O)Nc1ccccc1SC |  | octanol/buffer | pH 11, known kinase inactives set |  | logP | 3.18 |
| CCc1cc(C(=O)NC)c2nccc(N3CCc4c(cc(Cn5ccnc5)cc4-c4cn(C)nc4C(F)(F)F)C3=O)c2c1 |  | Sprague Dawley rats | oral, 100 mg/kg twice daily, 7 days |  | serum UREA level | 6.7 ± 0.32 mmol/L |
| O=C(O)c1cc(O)c(O)c(O)c1 |  | rat, plasma | oral, 1000 mg/kg extract, possible metabolite or extract component |  | elimination rate constant | 7.5e-05 ± 8.33e-06 s⁻¹ |
| C[Si](C)(C)O[Si](C)(C)C |  |  | 2 to 27 µg/L, 28.3 °C |  | log KOA | 2.69 |
| CCN1/C(=C/C(C)=O)Sc2ccc(F)cc21 |  | mouse, male, blood and brain | intraperitoneal, dose not given, up to 60 min | relative to: peak | concentration relative to peak | < 10% |
| CCO[C@H]1CCN(Cc2c(OC)cc(C)c3[nH]ccc23)[C@H](c2ccc(C(=O)O)cc2)C1 |  | PNH patients, active haemolysis | oral, 200 mg, 8 weeks, treatment |  | incidence of flatulence | 0% |
| CN[C@H](CC(C)C)C(=O)N[C@H]1C(=O)N[C@@H](CC(N)=O)C(=O)N[C@H]2C(=O)N[C@H]3C(=O)N[C@H](C(=O)N[C@H](C(=O)O)c4cc(O)cc(O)c4-c4cc3ccc4O)[C@H](O)c3ccc(c(Cl)c3)Oc3cc2cc(c3O[C@@H]2O[C@H](CO)[C@@H](O)[C@H](O)[C@H]2O[C@H]2C[C@](C)(N)[C@H](O)[C@H](C)O2)Oc2ccc(cc2Cl)[C@H]1O |  | male C57BL/6J mouse, thalamus | intracerebroventricular, 84 µg |  | time to sensor saturation | ≤ 120 min |
| NC1(C(=O)N[C@@H](CCO)c2ccc(Cl)cc2)CCN(c2nc[nH]c3nccc2-3)CC1 |  | metastatic CRPC patients | 480 mg b.i.d., grade 3 to 4, treatment-related, together with: enzalutamide 160 mg daily |  | incidence of Fatigue | 0% |
| CN(C(=O)n1cnc(-c2ccc[n+]([O-])c2)c1)[C@H]1CC[C@H](O)CC1 |  | rat, cortex | oral, 10 mg/kg daily for 5 days, 48 h |  | tissue concentration | 8.5 ± 0.1 ng/g |

Excerpt of the above:
| SMILES | assay | system | setting | scale | endpoint | result |
| --- | --- | --- | --- | --- | --- | --- |
| O=C(O)CCc1cccc(O)c1O |  | human, cerebrospinal fluid | concentration not given, median |  | CSF concentration | 15.8 nM |
